# Published values collected from several papers.
# Substitutions count along the parent as printed. ± gives the spread as reported.
# P1: RPC82 (Saccharomyces cerevisiae); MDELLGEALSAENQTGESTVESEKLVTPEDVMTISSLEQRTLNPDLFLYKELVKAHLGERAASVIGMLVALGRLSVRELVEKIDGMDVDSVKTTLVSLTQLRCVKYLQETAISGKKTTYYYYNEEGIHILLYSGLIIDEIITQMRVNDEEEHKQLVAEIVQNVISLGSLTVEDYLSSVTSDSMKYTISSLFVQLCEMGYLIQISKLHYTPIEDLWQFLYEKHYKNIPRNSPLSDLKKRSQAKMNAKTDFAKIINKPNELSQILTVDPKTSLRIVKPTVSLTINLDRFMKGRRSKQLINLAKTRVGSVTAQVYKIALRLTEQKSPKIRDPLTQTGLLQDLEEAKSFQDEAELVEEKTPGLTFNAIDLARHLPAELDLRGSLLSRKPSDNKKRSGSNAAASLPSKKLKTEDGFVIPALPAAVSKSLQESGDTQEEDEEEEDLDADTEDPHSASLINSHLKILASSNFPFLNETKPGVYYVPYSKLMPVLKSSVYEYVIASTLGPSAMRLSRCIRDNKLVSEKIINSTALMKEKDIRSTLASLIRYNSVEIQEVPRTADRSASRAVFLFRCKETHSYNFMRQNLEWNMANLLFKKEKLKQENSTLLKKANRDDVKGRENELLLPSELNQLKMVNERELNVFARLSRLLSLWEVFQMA; partner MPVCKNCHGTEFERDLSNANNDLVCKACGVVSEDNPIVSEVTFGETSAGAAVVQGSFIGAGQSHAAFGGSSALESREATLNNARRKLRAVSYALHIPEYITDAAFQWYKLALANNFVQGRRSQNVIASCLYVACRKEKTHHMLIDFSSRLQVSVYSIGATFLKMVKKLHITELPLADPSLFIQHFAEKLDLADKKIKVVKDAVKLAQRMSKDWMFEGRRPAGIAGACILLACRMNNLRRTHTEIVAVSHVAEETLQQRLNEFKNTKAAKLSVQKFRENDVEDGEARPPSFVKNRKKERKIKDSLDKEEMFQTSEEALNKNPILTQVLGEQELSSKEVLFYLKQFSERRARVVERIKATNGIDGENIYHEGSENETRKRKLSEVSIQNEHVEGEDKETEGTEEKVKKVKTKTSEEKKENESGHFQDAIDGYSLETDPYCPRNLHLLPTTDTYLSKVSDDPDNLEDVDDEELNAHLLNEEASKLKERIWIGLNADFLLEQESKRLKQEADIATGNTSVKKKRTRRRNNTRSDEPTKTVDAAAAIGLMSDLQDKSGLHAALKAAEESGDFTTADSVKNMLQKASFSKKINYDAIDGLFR
# P2: JPH2 N-terminal region (Mus musculus); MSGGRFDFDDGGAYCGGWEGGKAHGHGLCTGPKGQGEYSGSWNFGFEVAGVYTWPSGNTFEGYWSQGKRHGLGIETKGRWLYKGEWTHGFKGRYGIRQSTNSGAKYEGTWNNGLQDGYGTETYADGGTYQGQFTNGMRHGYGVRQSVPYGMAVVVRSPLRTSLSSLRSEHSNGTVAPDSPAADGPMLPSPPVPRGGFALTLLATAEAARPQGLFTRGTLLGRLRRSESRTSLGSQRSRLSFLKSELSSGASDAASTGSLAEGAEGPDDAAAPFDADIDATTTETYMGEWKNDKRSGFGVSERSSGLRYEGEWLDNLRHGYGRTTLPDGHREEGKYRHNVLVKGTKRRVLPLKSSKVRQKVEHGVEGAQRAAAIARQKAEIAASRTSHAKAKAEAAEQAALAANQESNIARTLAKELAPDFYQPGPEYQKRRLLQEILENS
# P3: Tln1 residues 1655-1822 (Mus musculus); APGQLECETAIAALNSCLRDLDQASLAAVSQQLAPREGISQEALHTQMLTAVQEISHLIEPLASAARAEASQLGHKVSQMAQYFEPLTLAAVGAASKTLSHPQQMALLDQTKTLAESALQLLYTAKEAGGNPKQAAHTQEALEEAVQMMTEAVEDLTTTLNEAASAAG; partner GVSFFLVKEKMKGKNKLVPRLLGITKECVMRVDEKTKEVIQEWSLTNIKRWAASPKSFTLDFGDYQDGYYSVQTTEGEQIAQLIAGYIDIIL
# P4: C1ql1 globular C1q domain (Mus musculus); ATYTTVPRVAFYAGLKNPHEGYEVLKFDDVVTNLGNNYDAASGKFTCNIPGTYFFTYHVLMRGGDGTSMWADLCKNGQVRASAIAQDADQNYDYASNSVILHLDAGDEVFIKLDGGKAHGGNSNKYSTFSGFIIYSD
# P5: DPPA3 residues 76-128 plus Trp (Mus musculus); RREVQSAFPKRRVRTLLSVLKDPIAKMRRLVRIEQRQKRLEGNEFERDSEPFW; partner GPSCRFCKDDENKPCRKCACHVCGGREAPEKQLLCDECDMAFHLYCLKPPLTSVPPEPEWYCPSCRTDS
# P6: CHMP1B residues 126-199 (Homo sapiens); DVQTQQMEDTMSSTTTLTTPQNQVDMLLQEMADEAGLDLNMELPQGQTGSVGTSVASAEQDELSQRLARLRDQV; partner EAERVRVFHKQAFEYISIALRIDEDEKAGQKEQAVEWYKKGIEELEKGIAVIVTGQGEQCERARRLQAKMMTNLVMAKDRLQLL
Molecule,tested on,assay,test system,conditions,scale,endpoint,value
P1 K403A K404A L405A K406A E408A D409A,BRF1 (Saccharomyces cerevisiae),immobilized template assay,,,"reference: unchanged protein, higher = more partner bound",relative binding,0.49
"GGUUUGUUACUGAUAAAGCAGGCAAGACC (ssRNA (Bacillus subtilis); hairpin, two internal loops)","licT 1-56 N9H (Bacillus subtilis, UniProt P39805)",SPR,folded RNA,,,Kd,32 ± 12 µM
"GCCCTGAAAGATTATGGAATGAGATTAGGGTAAAGGAAGAGAGCATAATCTTTCAGGGC (hairpin DNA; hairpin, 16 bp stem, 27 nt loop)","topA full length assumed (Escherichia coli, UniProt P06612)",fluorescence anisotropy,folded DNA,with: EDTA,,Kd,0.0004 ± 0.00012 µM
P2 S165Q,CACNA1C JBM (Mus musculus),Strep pull-down,,"3 µM, read off a plot","reference: unchanged protein, higher = more binding",relative binding,100%
P3 Y123A,"TLN1 F3 domain, 309-400 (Mus musculus)",NMR titration,,,,Kd,20 µM
P4 D114A,ADGRB3 CUB domain (Homo sapiens),ITC,,with: Ca2+ 2 mM,,Kd,3.5 µM
"GCCCTGAAAGATTATGGAATGCGATTAGGGTAAAGGAAGAGAGCATAATCTTTCAGGGC (hairpin DNA; hairpin, 16 bp stem, 27 nt loop)","topA full length assumed R173A (Escherichia coli, UniProt P06612)",fluorescence anisotropy,folded DNA,with: EDTA,,Kd,0.00057 ± 0.00014 µM
P2 A399S,CACNA1C JBM (Mus musculus),ITC,,,,Kd,21.6 µM
P5 M27P E34P,UHRF1 PHD finger 304-372 (Mus musculus),ITC,,,,Kd,> 1.9 µM
P6 E59A,"SPAST MIT domain, 112-195 (Homo sapiens)",SPR,,,,Kd,> 152 µM
"GGAUUGUUACUGAUAAAGCAGGCAAAACC (ssRNA; hairpin, two internal loops)","licT 1-56 R27A (Bacillus subtilis, UniProt P39805)",SPR,folded RNA,,,Kd,1.8 ± 0.72 µM
FVGEFFTDV,"HLA class I histocompatibility antigen, A alpha chain, allele A*11:01 (Homo sapiens, UniProt P04439)",binding,"peptide, human cells",,,IC50,no binding

# Some of these lines once more:
Molecule,tested on,assay,test system,conditions,scale,endpoint,value
P2 S165Q,CACNA1C JBM (Mus musculus),Strep pull-down,,"3 µM, read off a plot","reference: unchanged protein, higher = more binding",relative binding,100%
